Published values collected from several papers.
Each numbered part is a random draw from the data of one study; scales do not carry over between parts.
Chain of UniProt P48431 (37-118, looked up): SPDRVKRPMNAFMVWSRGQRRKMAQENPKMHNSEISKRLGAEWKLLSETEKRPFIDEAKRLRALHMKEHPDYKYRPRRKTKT

Set 1
Target: Histone acetyltransferase KAT6A, winged helix 2, GST fusion (KAT6A, Homo sapiens, UniProt Q92794, residues 85-181)
Method: protein binding microarray
Molecule type: double-stranded DNA, one strand shown
Matrix: in vitro
Concentration: not given
Setting: 8-mer, flanks averaged, mean of 2 arrays, mostly near background
Reference: not given
Direction: higher = stronger binding
Endpoint: E-score
Residues (chain): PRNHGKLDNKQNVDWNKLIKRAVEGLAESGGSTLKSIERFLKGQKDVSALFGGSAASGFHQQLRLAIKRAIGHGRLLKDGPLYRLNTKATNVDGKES
Sequence = GGCGTACA; value = -0.106
Sequence = AACAGGCG; value = -0.0795
Sequence = ATGTAGGG; value = -0.129
Sequence = CCCCCTAA; value = -0.0974
Sequence = CACTTTCA; value = 0.0518
Sequence = ACCGCGAG; value = 0.2
Sequence = CGTACTGA; value = -0.0996
Sequence = CGCGCCAC; value = 0.0698

Set 2
Target: PABPC1L2, full length, GST fusion (mouse, UniProt A0ABA7IW68)
Method: RNAcompete
Molecule type: RNA
Matrix: in vitro
Concentration: 20 nM
Setting: 7-mer, probes averaged, single round
Reference: mean of 7-mers
Direction: higher = stronger binding
Endpoint: 7-mer Z-score
Residues (chain): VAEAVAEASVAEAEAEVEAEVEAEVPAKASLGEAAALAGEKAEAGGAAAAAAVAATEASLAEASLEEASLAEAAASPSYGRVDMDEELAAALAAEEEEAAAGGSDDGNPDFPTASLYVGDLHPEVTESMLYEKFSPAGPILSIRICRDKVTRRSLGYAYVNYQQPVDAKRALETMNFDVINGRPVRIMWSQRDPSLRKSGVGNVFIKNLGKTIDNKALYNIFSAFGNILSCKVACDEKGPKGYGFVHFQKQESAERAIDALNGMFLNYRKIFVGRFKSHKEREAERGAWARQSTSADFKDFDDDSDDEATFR
Sequence = CCGUGCC; value = -0.28
Sequence = GAAGAUC; value = 0.129
Sequence = GCAUUGU; value = -0.306
Sequence = GUGACAA; value = 0.238
Sequence = UCAAGUA; value = -0.0935
Sequence = GGGUCGG; value = 0.142
Sequence = UGAUGCG; value = -0.182
Sequence = CUUACGA; value = -0.117

Set 3
Cell line: HEK-293T-ACE2
Concentration: concentration not given
Reference: vehicle
Endpoint: cell number
SMILES = Cc1cc(Nc2ncc(Cl)c(Nc3ccccc3S(=O)(=O)C(C)C)n2)c(OC(C)C)cc1C1CCNCC1; value = 93.7%
SMILES = CNC(=O)c1cnn(-c2nc(N)c3ncn([C@@H]4O[C@H](CO)[C@@H](O)[C@H]4O)c3n2)c1; value = 102%
SMILES = CC(C)(C)c1nc(-c2cccc(NS(=O)(=O)c3c(F)cccc3F)c2F)c(-c2ccnc(N)n2)s1; value = 90.9%
SMILES = CC[C@H](Nc1ncnc2[nH]cnc12)c1nc2cccc(F)c2c(=O)n1-c1ccccc1; value = 101%

Set 4
Target: Replicase polyprotein 1ab, nsp13 helicase (rep, Severe acute respiratory syndrome coronavirus 2, UniProt P0DTD1)
Mode: inhibitor
Concentration: 20 µM
Endpoint: inhibition
Compound = O=C(NO)c1cnc(N2CCN(S(=O)(=O)c3ccc4ccccc4c3)CC2)nc1; value = 4.21%
Compound = O=C(O)C1(c2ccc(-c3ccc(Cl)c(Cl)c3)c(F)c2)CC1; value = 2.74%
Compound = Cc1cn([C@H]2O[C@@H](CO)[C@H](O)[C@H]2F)c(=O)[nH]c1=O; value = 1.47%
Compound = N[C@@H](CSSC[C@H](N)C(=O)O)C(=O)O; value = -0.06%
Compound = CC(C1=C(CCN(C)C)Cc2ccccc21)c1ccccn1 (stereo not shown); value = 5.8%
Compound = CC(C)(C)C(=O)OCOP(=O)(COCCn1cnc2c(N)ncnc21)OCOC(=O)C(C)(C)C; value = 3.2%
Compound = C[C@]12Cc3c[nH]nc3C[C@@H]1CC[C@@H]1[C@@H]2CC[C@@]2(C)[C@H]1CC[C@]2(C)O; value = 7.42%
Compound = COc1ccc2nc3n[nH]c(C)c3c(NCCOCCO)c2c1; value = -0.27%
Compound = COc1cc2nccc(Oc3ccc(NC(=O)Nc4ccc(F)cc4F)c(F)c3)c2cc1OC; value = 1.44%
Compound = CC(=O)[C@H]1CC[C@H]2[C@@H]3CC=C4C[C@@H](OC(=O)CCC(=O)O)CC[C@]4(C)[C@H]3CC[C@]12C; value = 3.58%
Compound = Cc1cccc(/C=N/Nc2cc(N3CCOCC3)n3nc(-c4ccncc4)cc3n2)c1; value = 8.69%
Compound = Cn1cnc2[nH]c(=O)[nH]c(=O)c21; value = -4.23%
Compound = OC(CN1CCC(Cc2ccc(F)cc2)CC1)c1ccc(Cl)cc1 (stereo not shown); value = 1.18%
Compound = CO/N=C(\C(=O)N[C@@H]1C(=O)N2C(C(=O)OCOC(=O)C(C)(C)C)=C(/C=C\c3scnc3C)CS[C@H]12)c1csc(N)n1; value = 9.59%
Compound = CC(C)Oc1cccc(CC(=O)N2CCC[C@](CC[N+]34CCC(c5ccccc5)(CC3)CC4)(c3ccc(Cl)c(Cl)c3)C2)c1; value = 8.32%
Compound = Cc1cc2c(C(C)C)c(O)c(O)c(C=O)c2c(O)c1-c1c(C)cc2c(C(C)C)c(O)c(O)c(C=O)c2c1O; value = 28.1%
Compound = COc1cc(/C=C/C(N)=O)cc(OC)c1OC; value = 4.04%
Compound = CC(=O)CC/C=C(\C)CC/C=C(\C)CC/C=C(\C)CCC=C(C)C; value = 3.94%
Compound = CO[C@@]1(NC(=O)CSCC#N)C(=O)N2C(C(=O)O)=C(CSc3nnnn3C)CS[C@@H]21; value = -1.73%
Compound = C[C@]12CCC(=O)C=C1CC[C@@H]1[C@@H]2[C@@H](O)C[C@@]2(C)[C@H]1CC[C@]2(O)C(=O)COC(=O)CCC(=O)O; value = 9.68%
Compound = OC(CCN1CCCCC1)(c1ccccc1)c1ccccc1; value = 9.02%
Compound = c1ccc(Oc2nc(NC3CCCCC3)c3[nH]cnc3n2)cc1; value = -2.2%
Compound = COc1cc2nc(N3CCCN(C)CC3)nc(NC3CCN(Cc4ccccc4)CC3)c2cc1OC; value = 26.4%
Compound = Clc1cccc(N2CCNCC2)c1; value = 6.43%
Compound = COc1ccc(Oc2c(Cl)cnn(C3c4ccccc4-c4ccccc43)c2=O)cc1; value = 8.29%

Set 5
Target: Replicase polyprotein 1ab, main protease (rep, Severe acute respiratory syndrome coronavirus 2, UniProt P0DTD1)
Read-out: enzyme activity
Mode: inhibitor
Concentration: 20 µM
Setting: hit confirmation
Endpoint: inhibition
Compound = Oc1cc2c(cc1O)C(Cc1cccc3ccccc13)NCC2 (stereo not shown); value = 1.7%
Compound = CCCCCCCCCCCCCCCC[N+](C)(C)Cc1ccccc1; value = 28.5%
Compound = NS(=O)(=O)c1ccc2c(c1)C1C=CCC1C(c1ccc(Br)cc1)N2 (stereo not shown); value = 1.6%

Other studies, line by line
Method: protein-binding microarray
Molecule type: hairpin DNA
Matrix: in vitro
Concentration: not given
Setting: whole hairpin DNA, median over replicate spots
Reference: not given
Direction: higher = stronger binding
TP53 full length: Cellular tumor antigen p53, full length (TP53, Homo sapiens, UniProt P04637, residues 1-393)
Sequence = CCACAGGTGGTGGCATGCCTTCCTAGGCATGCCACCACCTGTGGACACTC (5mC at 39); target = TP53 full length; median fluorescence = 7230 a.u.
Sequence = GAGGCCTGGTGTGGTTGGCCTCCTGGCCAACCACACCAGGCCTCACACTC; target = Runt-related transcription factor 1, full length (RUNX1, Homo sapiens, UniProt Q01196-8, residues 1-480); median fluorescence = 2160 a.u.
Sequence = GCAGGCCCACCGTGGGCCTCCTGGCCCACGGTGGGCCTGCACACTCTTTCCCTACACGAC; target = Transcription factor SOX-2, HMG box (SOX2, Homo sapiens, UniProt P48431, residues 37-118); median fluorescence = 2410 a.u.
Sequence = CGGACCGGCCCGGGCATGTCTCCTGACATGCCCGGGCCGGTCCGACACTC (5mC at 38); target = TP53 full length; median fluorescence = 12200 a.u.

For quick reference, copied from above (set 2):
Sequence = CUUACGA; value = -0.117
Sequence = UGAUGCG; value = -0.182
Sequence = GUGACAA; value = 0.238
Sequence = GGGUCGG; value = 0.142
Sequence = GCAUUGU; value = -0.306
Sequence = UCAAGUA; value = -0.0935
